Measurements of several laboratories.
Numbered parts are unrelated; each lists some results of a single study. pIC50: −log10 of the molar value.

Study 1 — read-out: enzyme activity; mode: inhibitor; setting: without DTT; quantity: pIC50
Target: Replicase polyprotein 1ab, main protease (rep, Severe acute respiratory syndrome coronavirus 2, UniProt P0DTD1)
SMILES = COc1cc(N(C)C)cc(CN(C)CCc2ccc([N+](=O)[O-])cc2)c1O; value = 5.21
SMILES = Oc1cc(CNC(=S)/C=C/c2cc(O)c(O)c(Br)c2)cc(O)c1O; value = 6.30
SMILES = Nc1ccc2cc3ccc(N)cc3nc2c1; value = 6.10

Study 2 — mode: inhibitor; concentration: 20 µM; quantity: inhibition
Target: Replicase polyprotein 1ab, nsp13 helicase (rep, Severe acute respiratory syndrome coronavirus 2, UniProt P0DTD1)
SMILES = OC[C@H]1O[C@@H](Oc2cc3c(O)cc(O)cc3[o+]c2-c2ccc(O)c(O)c2)[C@H](O)[C@@H](O)[C@@H]1O; value = 14.9%
SMILES = Clc1ccccc1CN1CCc2sccc2C1; value = -4.47%
SMILES = Nc1nc(=O)n([C@H]2C[C@H](O)[C@@H](CO)O2)cc1F; value = 1.72%
SMILES = C=C[C@@H]1C2=CCOC(=O)C2=CO[C@H]1O[C@@H]1O[C@H](CO)[C@@H](O)[C@H](O)[C@H]1O; value = -2.29%
SMILES = CCC(=O)O[C@]1(C(=O)CCl)[C@@H](C)C[C@H]2[C@@H]3CCC4=CC(=O)C=C[C@]4(C)[C@@]3(F)[C@@H](O)C[C@@]21C; value = 4.53%
SMILES = Nc1nc2c(c(=O)[nH]1)NC(CNc1ccc(C(=O)N[C@@H](CCC(=O)O)C(=O)O)cc1)CN2 (some centres unmarked); value = -2.14%
SMILES = CCOC(=O)COc1ccc2c(c1)C[C@@H](NC[C@H](O)c1cccc(Cl)c1)CC2; value = 2.12%
SMILES = Cn1c(C#N)ccc1-c1ccc2c(c1)C(C)(C)OC(=S)N2; value = 4.14%
SMILES = CN1[C@@H]2CC(O)C[C@H]1[C@@H]1O[C@@H]12 (some centres unmarked); value = -0.48%
SMILES = COC(=O)C(Cc1ccc(OCCn2c(=O)sc3cc(C(=O)c4ccccc4)ccc32)cc1)C(=O)OC; value = -0.41%
SMILES = Nc1cc(F)ccc1NC(=O)/C=C/c1cnn(C/C=C/c2ccccc2)c1; value = 2.19%
SMILES = CC[C@H]1OC(=O)[C@H](C)[C@@H](O[C@H]2C[C@@](C)(OC)[C@@H](O)[C@H](C)O2)[C@H](C)[C@@H](O[C@@H]2O[C@H](C)C[C@H](N(C)C)[C@H]2O)[C@](C)(O)C[C@@H](C)[C@@H]2N[C@@H](COCCOC)O[C@H]([C@H]2C)[C@]1(C)O; value = -0.35%
SMILES = Nc1ncnc2c1C(=O)N(c1ccc([C@H]3CC[C@H](CC(=O)O)CC3)cc1)CCO2; value = 7.12%
SMILES = CC(C)(CO)[C@@H](O)C(=O)NCCC(=O)O; value = 3.77%
SMILES = O=C(O)CNC(=O)c1ccccc1I; value = 1.32%
SMILES = CCCCCCN(CCCCCC)C(=O)Cc1c(-c2ccc(F)cc2)[nH]c2ccccc12; value = -2.57%
SMILES = CCOc1ccn(-c2ccc(F)cc2)c(=O)c1C(=O)Nc1ccc(Oc2ccnc(N)c2Cl)c(F)c1; value = 4.22%
SMILES = Cc1noc(NS(=O)(=O)c2cccc3c(N(C)C)cccc23)c1C; value = 2.73%
SMILES = C#CC1(OCC(O)CN2CCN(c3cccc(C(F)(F)F)c3)CC2)CCCCC1 (centres unmarked); value = 9.98%
SMILES = Fc1ccc(-c2cncc(CN3CCN(c4cccc5c4OCCO5)CC3)c2)cc1; value = 3.43%
SMILES = CCCCCCCCc1ccc(-c2ccc(C(=O)O)cc2)cc1; value = 5.89%
SMILES = C[C@H]1[C@H](C)CC[C@]2(C(=O)O)CC[C@]3(C)C(=CC[C@@H]4[C@@]5(C)C[C@@H](O)[C@H](O)[C@@](C)(CO)[C@@H]5CC[C@]43C)[C@H]12; value = 2.85%
SMILES = Cc1nc2sccn2c(=O)c1CCN1CCC(=C(c2ccccc2)c2ccc(F)cc2)CC1; value = 2.11%
SMILES = CN1CCC(=C2c3ccccc3Sc3ccccc32)CC1; value = -0.62%
SMILES = COc1cc(N2CCC(N3CCN(C)CC3)CC2)ccc1Nc1ncc(Cl)c(Nc2ccccc2S(=O)(=O)C(C)C)n1; value = 8.48%

Study 3 — method: RNA Bind-n-Seq; form: RNA; matrix: in vitro; concentration: 15 pmol; setting: 4-mer, random 30-nt RNA, single round; together with: 3 µM DMDA-PatA, 2 mM AMP-PNP; relative to: input library; direction: higher = stronger binding; quantity: 4-mer enrichment
Target: Eukaryotic initiation factor 4A-I (EIF4A1, Homo sapiens, UniProt P60842, residues 1-406, full length assumed)
UniProt P60842, sequence (whole entry, looked up): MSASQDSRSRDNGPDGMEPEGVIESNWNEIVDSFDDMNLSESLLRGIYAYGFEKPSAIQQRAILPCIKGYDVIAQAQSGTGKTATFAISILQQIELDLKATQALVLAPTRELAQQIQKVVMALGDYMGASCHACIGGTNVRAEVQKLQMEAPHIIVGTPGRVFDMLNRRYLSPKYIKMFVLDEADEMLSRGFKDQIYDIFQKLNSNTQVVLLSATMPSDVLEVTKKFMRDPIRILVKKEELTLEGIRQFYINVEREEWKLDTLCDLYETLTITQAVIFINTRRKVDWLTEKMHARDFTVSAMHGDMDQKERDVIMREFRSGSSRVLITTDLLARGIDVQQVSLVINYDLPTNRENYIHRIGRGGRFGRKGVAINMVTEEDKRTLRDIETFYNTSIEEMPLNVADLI
Strand = CUAC; value = 0.76 fold
Strand = CUUC; value = 0.551 fold
Strand = UAUC; value = 0.851 fold
Strand = GCAC; value = 0.786 fold

Study 4 — cell line: HEK-293T/ACE2; concentration: 10 µM; time: 16 h; relative to: vehicle; quantity: viability
SMILES = C[C@]12CC[C@H]3[C@@H](CC[C@@]45O[C@@H]4C(O)=C(C#N)C[C@]35C)[C@@H]1CC[C@@H]2O; value = 100%
SMILES = CC(C)C(=O)Oc1ccc(CO)cc1[C@H](CCN(C(C)C)C(C)C)c1ccccc1; value = 101%
SMILES = CCOC(=O)[C@H](CCc1ccccc1)N[C@@H](C)C(=O)N1Cc2ccccc2C[C@H]1C(=O)O; value = 99.4%

Study 5 — method: protein-binding microarray; form: double-stranded DNA, one strand shown; matrix: in vitro; concentration: 2540 nM top; setting: 60-bp whole probe; together with: salmon DNA 0.4 mg/ml; relative to: random background probes; direction: higher = stronger binding; quantity: fitted relative affinity; shared flanks, not repeated: GCCTAGCAC … GTCTTGATTCGCTTGACGCTGCTG
Target: Interferon regulatory factor 3, full length, phosphomimetic (IRF3, Homo sapiens, UniProt Q14653, residues 1-427, S386D/S396D/S398D/S402D/T404D/S405D)
Target sequence (chain): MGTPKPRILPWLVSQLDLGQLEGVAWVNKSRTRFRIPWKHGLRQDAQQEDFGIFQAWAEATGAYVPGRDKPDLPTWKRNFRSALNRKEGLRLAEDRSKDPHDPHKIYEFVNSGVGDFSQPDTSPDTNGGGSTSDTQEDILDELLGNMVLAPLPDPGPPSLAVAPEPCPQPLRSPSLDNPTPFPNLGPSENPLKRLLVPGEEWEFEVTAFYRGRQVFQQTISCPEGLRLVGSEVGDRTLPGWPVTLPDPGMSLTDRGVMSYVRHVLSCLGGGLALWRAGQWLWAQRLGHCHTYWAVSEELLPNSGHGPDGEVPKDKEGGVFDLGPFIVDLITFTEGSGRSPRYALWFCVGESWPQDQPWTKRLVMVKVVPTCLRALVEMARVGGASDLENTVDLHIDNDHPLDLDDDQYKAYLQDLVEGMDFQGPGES
Strand = TTAGGTTGCGGTATCGGTTAGTGCTAG; value = 5.39 z-score
Strand = TTAGATTTCGACACTGGGTTAGTGCTA; value = 0.471 z-score
Strand = GTAGGTCTCGGTCTCGGTTAGTGCTAG; value = 1.19 z-score
Strand = TTAGGTATCATACTGCTTTAGTGCTAG; value = 1.7 z-score
Strand = TCATTTTTTTTCATCATACTGTGCTAG; value = 1.23 z-score
Strand = GACGATAACGGGACTGGAGACGTGCTA; value = -0.496 z-score
Strand = GACGGTTTCCTTTCCATGACGTGCTAG; value = 9.86 z-score
Strand = GACGGACTGCGGTATCGGGACGTGCTA; value = 0.068 z-score

Study 6 — method: RNAcompete; form: RNA; matrix: in vitro; concentration: 20 nM; setting: 7-mer, probes averaged, single round; relative to: mean of 7-mers; direction: higher = stronger binding; quantity: 7-mer Z-score
Target: PABPC1L2, full length, GST fusion (mouse, UniProt A0ABA7IW68)
Target sequence (chain): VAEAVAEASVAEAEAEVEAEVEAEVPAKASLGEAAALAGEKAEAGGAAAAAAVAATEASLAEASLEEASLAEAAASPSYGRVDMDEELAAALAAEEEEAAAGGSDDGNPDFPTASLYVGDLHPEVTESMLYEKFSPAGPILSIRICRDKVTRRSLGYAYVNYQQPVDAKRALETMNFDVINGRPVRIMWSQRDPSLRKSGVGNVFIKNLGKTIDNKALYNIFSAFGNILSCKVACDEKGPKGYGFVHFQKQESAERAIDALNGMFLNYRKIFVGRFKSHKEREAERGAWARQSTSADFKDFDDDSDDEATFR
Strand = GCGACUC; value = -0.112
Strand = UGGCAUG; value = 0.017
Strand = AAGGUCA; value = 0.00798
Strand = CGCGAGU; value = -0.414
Strand = ACACAUU; value = 0.0805
Strand = CUGUAUG; value = -0.262
Strand = UCUCUAC; value = -0.307
Strand = UCCUCUC; value = -0.369

Study 7 — method: protein-binding microarray; form: hairpin DNA; matrix: in vitro; concentration: not given; relative to: not given; direction: higher = stronger binding; quantity: median fluorescence
Target: Cyclic AMP-dependent transcription factor ATF-1, full length (ATF1, Homo sapiens, UniProt P18846, residues 1-271)
Setting: whole hairpin DNA, median over replicate spots
Strand: GAGGCCGACGACGTCGTGCCTCCTGGCACGACGTCGTCGGCCTCACACTC
Target sequence (chain): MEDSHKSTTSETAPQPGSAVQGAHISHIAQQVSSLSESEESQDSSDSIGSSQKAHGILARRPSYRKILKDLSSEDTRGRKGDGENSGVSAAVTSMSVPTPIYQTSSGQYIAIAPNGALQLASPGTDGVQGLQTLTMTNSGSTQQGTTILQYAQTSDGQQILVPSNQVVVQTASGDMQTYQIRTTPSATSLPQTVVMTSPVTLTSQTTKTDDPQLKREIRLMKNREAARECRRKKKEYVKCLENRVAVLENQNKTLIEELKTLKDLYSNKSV
Modification = 5mC at 9 15 29 32 35; value = 3360 a.u.
Modification = 5mC at 9 15 29 35; value = 4380 a.u.
Modification = 5mC at 9 35; value = 3970 a.u.
Modification = 5mC at 9 12 15 29 32 35; value = 3280 a.u.
Modification = 5mC at 15 29 35; value = 3710 a.u.

For quick reference, copied from above (study 5):
Strand = TTAGGTTGCGGTATCGGTTAGTGCTAG; value = 5.39 z-score
Strand = TTAGATTTCGACACTGGGTTAGTGCTA; value = 0.471 z-score
Strand = GTAGGTCTCGGTCTCGGTTAGTGCTAG; value = 1.19 z-score
Strand = TTAGGTATCATACTGCTTTAGTGCTAG; value = 1.7 z-score
Strand = TCATTTTTTTTCATCATACTGTGCTAG; value = 1.23 z-score
Strand = GACGATAACGGGACTGGAGACGTGCTA; value = -0.496 z-score
Strand = GACGGTTTCCTTTCCATGACGTGCTAG; value = 9.86 z-score
Strand = GACGGACTGCGGTATCGGGACGTGCTA; value = 0.068 z-score
